Published values of several laboratories.
± marks the error that the study gave.

SMILES | test | test system | conditions | endpoint | value
CO[C@H]1C[C@@H]2CC[C@@H](C)[C@@](O)(O2)C(=O)C(=O)N2CCCC[C@H]2C(=O)O[C@H]([C@H](C)C[C@@H]2CC[C@@H](OC(=O)NCCOCCOCCOCCOCCOCCOCCOCCOCCC(=O)N3CCc4cc(Cn5nc(-c6ccc7oc(N)nc7c6)c6c(N)ncnc65)ccc4C3)[C@H](OC)C2)C[C@@H](O)[C@H](C)/C=C(\C)[C@@H](O)[C@@H](OC)C(=O)[C@H](C)C[C@H](C)/C=C/C=C/C=C/1C | phase 1 dose escalation | advanced solid tumour patients | intravenous, 16 mg weekly, any grade | any TEAE incidence | 100%
CCN1[C@@H](C(=O)NC23CCC(C(=O)O)(CC2)CC3)[C@H](c2cccc(Cl)c2F)[C@]2(C(=O)Nc3cc(Cl)ccc32)C12CCCCC2 |  | patients with advanced solid tumours | oral, dose not given, all doses | Neutropenia incidence | 38.1%
O=C(c1cc2cccnc2n1-c1ccc(Cl)c(Cl)c1)N1CC(F)(F)C1 |  | mouse | intravenous, 5 mg/kg | clearance | 20.9 mL/min/kg
CCCCCCCCCCCCCCCC(=O)N[C@@H](CCC(=O)NCCCC[C@H](NC(=O)[C@H](CC(=O)O)NC(=O)[C@H](CO)NC(=O)[C@@H](NC(=O)[C@H](Cc1ccccc1)NC(=O)[C@@H](NC(=O)CNC(=O)[C@H](CCC(N)=O)NC(=O)[C@H](CO)NC(=O)[C@@H](N)Cc1c[nH]cn1)[C@@H](C)O)[C@@H](C)O)C(=O)N[C@@H](CO)C(=O)N[C@@H](CCC(=O)O)C(=O)N[C@@H](Cc1ccc(O)cc1)C(=O)N[C@@H](CC(C)C)C(=O)N[C@@H](CC(=O)O)C(=O)N[C@@H](CO)C(=O)N[C@@H](CCC(=O)O)C(=O)N[C@@H](CCCNC(=N)N)C(=O)N[C@@H](C)C(=O)N[C@@H](CCCNC(=N)N)C(=O)N[C@@H](CC(=O)O)C(=O)N[C@@H](Cc1ccccc1)C(=O)N[C@H](C(=O)N[C@@H](C)C(=O)N[C@@H](Cc1c[nH]c2ccccc12)C(=O)N[C@@H](CC(C)C)C(=O)N[C@@H](CCC(=O)O)C(=O)N[C@@H](C)C(=O)NCC(=O)NCC(=O)O)C(C)C)C(=O)O |  | human, CrCl ≥30 to <45 mL/min | sc, 100 µg single dose | abdominal distension | 9.1%
CN1CC[C@@H](c2c(O)cc(O)c3c(=O)cc(-c4ccc(C(F)(F)F)cc4Cl)oc23)[C@@H]1CO | item: Diarrhea | AML | oral, 200 mg, intermittent dosing | patients with adverse event | 50%
COc1ccnc(C(=O)N[C@H]2COC(=O)[C@H](Cc3ccccc3)[C@@H](OC(=O)C(C)C)[C@H](C)OC2=O)c1OCOC(=O)C(C)C | soil adsorption | soil | pH 6.9, organic carbon 0.8 % | Freundlich coefficient KF | 470 mL/g
CCC[C@@](N)(CO)CCc1ccc(OCCCCCC(C)C)cc1 |  | dog | oral, 5 mg/kg | AUC(0-inf) | 11.3 µM·h
C[C@@H]1OC(=O)NN=C1c1ccc(-c2ccc(F)cc2)c(C(F)(F)F)c1 | phase I trial, item: Dyspnoea all grades | human patients | 20 mg loading then 1 mg daily | patients with adverse event | 50%
C[C@]1(CO)Cc2ncn(-c3ccc(C#N)c(Cl)c3)c2C(=O)O1 |  | healthy Chinese subjects | dose not given, single dose, all doses | subjects with drug-related TEAE | 20.8%
NC(=O)[C@H]1CCN(c2ncnc(N)c2F)C[C@@H]1N1CCC[C@@H](Nc2cc(Cl)cc(C(F)(F)F)c2)C1=O |  | B-cell malignancy patients | oral, 164 mg twice daily, dose | grade ≥3 leukopenia | 0%
O=C1Nc2cc3[nH]nc(-c4ccncc4)c3cc2CN1Cc1ccccc1 | item: vitreous floaters | patients with advanced solid tumours | intravenous, dose not given | patients with TEAE | 11%
CC(C)CC(=O)OC[C@H]1O[C@@](C#N)(c2ccc3c(N)ncnn23)[C@H](O)[C@@H]1O |  | Humans plasma | 5 µM, 30 min | remaining compound | 7.68 ± 0.3%
COc1cc2c(Oc3ccc4[nH]c(C)cc4c3F)ccnc2cc1OCC1(N)CC1 |  | paediatric recurrent refractory sarcoma | 10 mg | grade 1 or 2 Epistaxis | 25%
CC(C)C[C@H](NC(=O)[C@H](CCCCN)NC(=O)OCC1c2ccccc2-c2ccccc21)C(=O)N[C@H](C(=O)N[C@@H](Cc1ccccc1)C(=O)N[C@@H](Cc1ccccc1)C(=O)N[C@@H](CCCCN)C(=O)NCC(=O)N[C@@H](Cc1ccccc1)C(=O)N[C@@H](C)C(=O)N[C@@H](Cc1c[nH]c2ccccc12)C(=O)N[C@@H](CC(N)=O)C(=O)N[C@H](C(=O)N[C@H]1CSSC[C@@H](C(=O)N[C@@H](Cc2c[nH]cn2)C(=O)N[C@@H](CCCNC(=N)N)C(=O)N[C@@H](CCCNC(=N)N)C(=O)N[C@@H](C)C(=O)N[C@@H](CC(N)=O)C(N)=O)NC(=O)[C@H](C(C)C)NC(=O)[C@H](CCCNC(=N)N)NC(=O)[C@H](C(C)C)NC(=O)CNC(=O)[C@H](CC(N)=O)NC(=O)[C@H](CCCNC(=N)N)NC(=O)[C@H](Cc2ccc(O)cc2)NC(=O)[C@H](C(C)C)NC1=O)C(C)C)C(C)C |  | ICR mice, serum | intraperitoneal, 5 mg/kg, day 5 | phosphorus | 3.37 ± 0.1 mmol/L

Repeated from above:
SMILES | test | test system | conditions | endpoint | value
CC(C)CC(=O)OC[C@H]1O[C@@](C#N)(c2ccc3c(N)ncnn23)[C@H](O)[C@@H]1O |  | Humans plasma | 5 µM, 30 min | remaining compound | 7.68 ± 0.3%
